Assay results pooled from the literature.
Numbered parts are unrelated; each lists some results of a single study. Changes are numbered by the printed parent chain.

Series 1
Target: CCNE1, cyclin fold, Cln2 fusion (human)
Method: yeast growth competition, sequencing
Matrix: yeast
Setting: strong parent motif
Relative to: not given
Reading: higher = stronger binding
Quantity: normalised enrichment score
Starting sequence: RBL2 docking peptide (human); STTRRRLFVENDS
R6A: 2.05
R6E: 0.547
F8H: -0.379
N11K: 5.51
S1K: 5.73
R4L: 0.365
S13L: 5.81
L7N: -1.14
N11Y: 6.32
N11R: 4.37
S1V: 5.55
T2Q: 6.26
S1T: 5.8
N11S: 5.88
S1W: 4.61
S13D: 6.67
T3M: 2.47
E10F: 2.83
R5L: 0.339
D12P: 5.18

Series 2
Target: Centromere-binding protein 1, full length, His-tagged (CBF1, Saccharomyces cerevisiae, UniProt P17106, residues 1-351)
Sequence of UniProt P17106 (whole entry, looked up): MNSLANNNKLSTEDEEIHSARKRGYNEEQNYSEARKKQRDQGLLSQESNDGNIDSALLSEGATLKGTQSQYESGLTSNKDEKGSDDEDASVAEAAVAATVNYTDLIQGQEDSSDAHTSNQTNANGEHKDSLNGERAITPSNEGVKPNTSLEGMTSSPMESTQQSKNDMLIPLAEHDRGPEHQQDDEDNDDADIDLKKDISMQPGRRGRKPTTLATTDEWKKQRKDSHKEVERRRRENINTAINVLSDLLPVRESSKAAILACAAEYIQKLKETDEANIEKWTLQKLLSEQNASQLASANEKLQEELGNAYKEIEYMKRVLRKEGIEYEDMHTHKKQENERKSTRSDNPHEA
Method: competition protein-binding microarray
Molecule type: double-stranded DNA, one strand shown
Matrix: in vitro
Tested at: 2 µM
Setting: whole 60-bp probe, lowest competitor level
Together with: Pho4 competitor, 0.05 µM
Reading: higher = stronger binding
Quantity: fluorescence intensity
Constant ends, left off below: … GTCTTGATTCGCTTGACGCTGCTG
AGAGCTGCGGGCATGGACGTGCCGATTATTCCCGGG: 69.6 a.u.
TGCTGCATTTCTCACCACGTCCTGGTGGGAGTTTCC: 63.1 a.u.
AAAGCGGTAATTTGTCACGAAACTTCACATATCTAT: 105 a.u.
CTTCTGTAAATTTTTCACGTGAGGTGAAGCGCCCCG: 895 a.u.
AAATTACTAAGTTGTCACGAAACTTACCCCGTATGA: 81 a.u.
TGATGATATAAGGTCCACGTGATGGCATTTCAATCT: 3250 a.u.
AAATTACTAAGTTGTCACTGCACTTACCCCGTATGA: 87.2 a.u.
CGGGGTTAAGTTTGCTTAGTGGGTGGCTTGCAGCAG: 82 a.u.
CGGGGTTAAGTTTGGGCGGTGGGTGGCTTGCAGCAG: 74.5 a.u.
AATTTAACGTCGTATCACCTGCCATAACCGAGCAAG: 166 a.u.
AAAGCGGTAATTTCGCACGTGTTTTCACATATCTAT: 1520 a.u.
CGGGGTTAAGTTTGGAATGTGGGTGGCTTGCAGCAG: 66.4 a.u.
TACATATAACGTATACGTTAGAAAAATTTGAATACA: 87 a.u.
CGTCCTAGCGATTGAGTTGTGGGTGCCATGAGGAAG: 74.6 a.u.
GGAGTGAAAAGGGCGCTCAAAAATAGGCATATCTCA: 66 a.u.
ATCAGTAGACATGGACACGTGCCAGAAGTCATCAAA: 2720 a.u.
CTTCAGATGTCAGACAACGTGCAAAATCTTTTTTTC: 177 a.u.
TGCGCAACAACTTGTTGCGTGGGTGTATGTCTAGAA: 70.2 a.u.
CTTCTGTAAATTTTTCACGTGAAATGACGCGCCCCG: 736 a.u.

Series 3
Target: ABI1, truncated, D143A, DHFR fusion (Arabidopsis thaliana)
Method: DHFR PCA, deep sequencing
Matrix: yeast
Setting: methotrexate growth selection, single substitutions
Together with: (+)-ABA 0.39 µM
Relative to: wild-type fitted maximum
Reading: higher = stronger binding
Quantity: relative binding score
Starting sequence: PYL1, truncated, DHFR fusion (Arabidopsis thaliana); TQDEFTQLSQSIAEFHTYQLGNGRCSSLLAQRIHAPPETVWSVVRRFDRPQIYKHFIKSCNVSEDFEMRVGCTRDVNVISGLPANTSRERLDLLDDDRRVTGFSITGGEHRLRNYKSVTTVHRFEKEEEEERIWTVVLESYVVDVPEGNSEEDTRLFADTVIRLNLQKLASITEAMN; partner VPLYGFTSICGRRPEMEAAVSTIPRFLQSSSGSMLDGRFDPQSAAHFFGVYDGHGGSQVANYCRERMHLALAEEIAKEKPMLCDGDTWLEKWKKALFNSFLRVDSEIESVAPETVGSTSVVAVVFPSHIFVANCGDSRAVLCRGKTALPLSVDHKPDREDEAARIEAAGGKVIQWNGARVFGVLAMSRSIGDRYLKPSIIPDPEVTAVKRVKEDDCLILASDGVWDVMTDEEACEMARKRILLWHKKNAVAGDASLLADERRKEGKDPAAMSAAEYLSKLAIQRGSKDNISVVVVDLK
E174Y: -6.38%
Q51L: -2.31%
I133W: 20.3%
S140V: 3.92%
E14K: 21.8%
L93R: 13%
R98G: -1.85%
V118W: -7.78%
I172D: -16.2%
I79D: 6.38%
V121C: -0.307%
T119E: 5.49%
L138G: -14.9%
S9I: 22.8%

Series 4
Target: RNA binding protein fox-1 homolog 2, RRM domain, GST-SBP tag (RBFOX2, Homo sapiens, UniProt O43251-10, residues 100-194)
Method: RNA Bind-n-Seq
Molecule type: RNA
Matrix: in vitro
Tested at: 365 nM
Setting: natural RNA segment, single round, ends assumed
Relative to: no-protein control
Reading: higher = stronger binding
Quantity: RBNS enrichment (R)
Constant ends, left off below: GGGAGUUCUACAGUCCGACGAUC … UGGAAUUCUCGGGUGCCAA
Target sequence (chain): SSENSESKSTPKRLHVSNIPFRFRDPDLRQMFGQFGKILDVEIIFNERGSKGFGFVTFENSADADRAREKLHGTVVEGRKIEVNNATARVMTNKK
ACCAAUGGAUGAGGGGGGUGGCCACAGGAGAUGGGGAGAGGAGUCUGAACUAAACCCCUGGCUUUUGUGCACACUGCAUACGUUUCAGAACUCCUGGAUGGUAACCAUCU: 1.02
GUCCUCACACUCCUGGAUCACUGAGCAGAAUGAACAUUUUCUCCAGCCUCUGAGACUAUCGCUCUUAACCAUGGAAAAGCUCAAAAUAUUCUUGCCAUUACUCAGUGUUC: 0.465
AGGUCUCAGCAAUGAAUCGGGAAGACACGAAAGGUCUAAGACUAAAUAUCCAAAUUAUAAAUACUAAGGAAACUUUGUUUCCAGUUUGGCAAUGAUCCAGUCUAAAGUAG: 0.461
UAUGCAAUAUUUCAUCUGUUUAAUUUUCUAACUCUGUAUUGUUCCUAAAGACGGAUGAAUGAGUCUCUGUGGUGUUGCCUGCUCAUUGUGCAUACCCUUGGUAGACAUUU: 0.595
GUGAGGGAAGCCACUUAAAGACUAUGCCCCACCUUCAGCUCCUCACCCCAGAAACUCCAGCCAGCACCACCGACACAACCAGACCAGCGCCACACCGCACUGAGGACUCC: 0.367
CUUUGGCUUUGGGAAGGAAGAGAUGACCGUAAUCUUGCAACAAGAGUGCCCAACCAGGGACCACUGUCAUCAUAGUGGCUCUCAAUGUGCAUGUCACACCCCCCCUCAGU: 0.712
GGGGGUAGUGACAGAAUCCCUGGAAGAGUCUUGAGCCACUUCCUGCUGGGGUUUCUAGUAAAGUCUGUGAGCCUCUCCACCAGUCCCUGUAAAUGCUAAUGCAGCCCAGC: 0.468
UCUUCCUACAGGGAAGAAGAGCAACCCUCAGCAGCCCUCUUGCCCCUCCAUGGGGUGAAGCCACACUCAGUGGGUGUGUCACUUCAGGCUCUGUGGGCUGUGCUCAGUCU: 0.205

Excerpt of the above (series 1):
R4L: 0.365
S13L: 5.81
L7N: -1.14
N11Y: 6.32
